Earlier results that unrelated publications cite.
Each line is one published result; not all experiments were run side by side. Numbers after ± are the reported error. ≈ marks a conversion by molar mass, not a printed value.

Compound	tested on	assay	test system	setting	how to read	endpoint	value
CC(=O)N1CCC(NC(=O)Nc2ccc(OC(F)(F)F)cc2)CC1	soluble epoxide hydrolase (mouse)	binding, in vitro	–	–	–	residence time	6 min
O=c1[nH]c(NC[C@H](O)[C@H](O)[C@H](O)CO)c([N+](=O)[O-])c(=O)[nH]1	Bacillus subtilis lumazine synthase	–	recombinant β60 capsid	pH 7.0, Tris·HCl buffer, with: 2 constant, 1 varied	–	Ks	12 ± 2 µM
CNC(=O)c1ccccc1Oc1nc(Nc2cc(OC)c(OC)c(OC)c2)ncc1Br	MARK3	–	–	0.25 µM	–	inhibition	> 40%
O=c1[nH]c(SC[C@H](O)[C@H](O)[C@H](O)CO)c([N+](=O)[O-])c(=O)[nH]1	Bacillus subtilis lumazine synthase	enzyme kinetics	recombinant β60 capsid	pH 7.0, with: substrate 2 fixed, 1 varied	–	kcat	1.3 ± 0.1 min⁻¹
CC(=O)N[C@H]1[C@@H](O)[C@H](O)[C@@H](CO)O[C@H]1O	Staphylococcus aureus NanK	–	–	–	–	kcat	1680 min^–1
COC(=O)CN(C/C=C/c1ccc(OC)c(OC)c1)Cc1ccc(F)cc1	none	abscisic acid production	in planta	–	concentration inhibiting	effective concentration	50 to 100 µM
COc1cc(OC)c(CN2CCN(C)CC2)c(O)c1/C=C/C(=O)c1cccc(Br)c1	beta-glucuronidase	–	–	10 µM	–	inhibition	75%
Cc1cc(N)nc(C[C@@H]2CNC[C@@H]2OCCCCCc2ccccn2)c1	nNOS	–	–	–	relative to: eNOS over nNOS	selectivity ratio	2000 fold
CC(C)C(=O)Nc1c(NC[C@H](O)[C@H](O)[C@H](O)CO)[nH]c(=O)[nH]c1=O	Bacillus subtilis lumazine synthase	uncompetitive inhibitor	–	pH 7.0	–	Kis	64 ± 11 µM
C[C@@H]1O[C@@H](Oc2c(-c3ccc(O)c(O)c3)oc3cc(O)cc(O)c3c2=O)[C@H](O)[C@H](O)[C@H]1O	Hedgehog/GLI1 pathway	inhibitor	–	concentration not given	–	activity	inactive
CS(=O)(=O)c1ccc(-c2nc3ccccn3c2CN2CCOCC2)cc1	cyclooxygenase-2	–	–	–	relative to: COX-1 IC50 over COX-2 IC50	selectivity ratio	217
CC[C@H](C)[C@H](NC(=O)[C@H](CO)NC(=O)[C@H](CC(C)C)NC(=O)[C@@H]1CCCN1C(=O)[C@@H]1CCCN1C(=O)[C@H](CC(=O)O)NC(=O)[C@@H](N)CC(=O)O)C(=O)N[C@@H](CC(=O)O)C(=O)N[C@@H](CC(C)C)C(=O)N[C@H](C(=O)N[C@@H](Cc1ccccc1)C(=O)N[C@@H](Cc1c[nH]cn1)C(=O)N[C@@H](CC(C)C)C(=O)N[C@@H](CC(C)C)C(=O)N[C@@H](CCCNC(=N)N)C(=O)N[C@H](C(=O)N[C@@H](CC(C)C)C(=O)N[C@@H](CC(C)C)C(=O)N[C@@H](CCC(=O)O)C(=O)N[C@@H](CC(C)C)C(=O)N[C@@H](C)C(=O)N[C@@H](CCCNC(=N)N)C(=O)N[C@H](C(=O)N[C@@H](CCC(N)=O)C(=O)N[C@@H](CO)C(=O)N[C@@H](CCC(N)=O)C(=O)N[C@@H](CCCNC(=N)N)C(=O)N[C@@H](CCC(=O)O)C(=O)N[C@@H](CCCNC(=N)N)C(=O)N[C@@H](C)C(=O)N[C@@H](CCC(=O)O)C(=O)N[C@@H](CCC(N)=O)C(=O)N[C@@H](CC(N)=O)C(=O)N[C@@H](CCCNC(=N)N)C(=O)N[C@H](C(=O)N[C@H](C(=O)N[C@@H](Cc1ccccc1)C(=O)N[C@@H](CC(=O)O)C(=O)N[C@@H](CO)C(=O)N[C@H](C(N)=O)C(C)C)[C@@H](C)CC)[C@@H](C)CC)[C@@H](C)O)[C@@H](C)O)[C@@H](C)O	CRH receptor 1	–	CRH-R1-transfected cells	–	–	EC50	1 to 3 nM
COCn1ccc(NCCNCCCOc2ccc3c(NCCCc4ccccc4)ncnc3c2)nc1=O	human DNMT3A catalytic domain	enzyme activity	–	32 µM	–	inhibition	0%
Cc1cccc(Cn2ncc3c4cc(F)c(CN(C)C)cc4n(C)c3c2=O)n1	human recombinant PKM2	enzyme activity, activator	–	concentration not given	–	activation	> 200%
O=C(Nc1c(-c2ccccc2)cnn1-c1ccccc1)c1ccc([N+](=O)[O-])cc1	rat mGlu1 receptor	positive allosteric modulator	–	–	–	EC50	2400 nM
CN1CCN(c2cc(-c3ccccc3CO)c(N(C)C(=O)C(C)(C)c3cc(C(F)(F)F)cc(C(F)(F)F)c3)cn2)CC1	–	–	healthy volunteers, plasma	oral, 450 mg, single dose, with: palonosetron 0.75 mg	–	Cmax	97.7 ng/mL
COCCOCCOCCOCCC(=O)NCc1cc(CNC(=O)CCOCCOCCOCCOC)cc(-c2cc3cc4nc(c(OC)c5[nH]c(cc6nc(cc2[nH]3)CC6(C)C)cc5-c2cc(CNC(=O)CCOCCOCCOCCOC)cc(CNC(=O)CCOCCOCCOCCOC)c2)CC4(C)C)c1	–	–	DMF	room temperature	–	intersystem crossing yield	0.42
Cc1ccccc1-c1cc(N2CCNCC2)ncc1N(C)C(=O)C(C)(C)c1cc(C(F)(F)F)cc(C(F)(F)F)c1	–	–	healthy volunteers, plasma	oral, 450 mg, single dose, netupitant alone	–	Cmax	60.7 ng/mL
O=C(O)C1Nc2c(O)cccc2C2C=CCC12 (centres unmarked)	PRC2-EZH2 wild type	enzyme activity, inhibitor	–	concentration not given	–	inhibition	inhibited
CN(C(=O)c1ccccc1)c1ccc(C(O)(C(F)(F)F)C(F)(F)F)cc1	LXRβ	agonist	–	–	–	EC50	180 nM
COC(=O)[C@H](CC(C)C)NC(=O)[C@@H]1CCCN1C(=O)[C@@H](NC(=O)[C@H](CCC(=O)C=[N+]=[N-])NC(=O)OCc1ccccc1)C(C)C	guinea pig transglutaminase 2	–	–	50 µM, 30 min	–	inhibition	95%

Compound	tested on	assay	test system	setting	how to read	endpoint	value
CCOC(=O)C(=O)Nc1c(NC[C@H](O)[C@H](O)[C@H](O)CO)[nH]c(=O)[nH]c1=O	Bacillus subtilis lumazine synthase	–	recombinant β60 capsid	pH 7.0, Tris·HCl buffer, with: 2 constant, 1 varied	–	Ks	5.4 ± 0.5 µM
Cc1cccc(C)c1NC(=O)C1CCN(Cc2ccccc2)C1 (centres unmarked)	sodium channel (human)	channel block	–	–	relative to: compound over tocainide	potency ratio	10
N[C@@H](Cc1ccc(O)c(Cl)c1)C(=O)O	iodotyrosine deiodinase	substrate	–	–	–	dechlorination yield	~94%
Nc1nc(-c2ccc(NC(=O)c3cc(Cl)cc(Cl)c3)cc2)c[nH]1	colistin	–	Acinetobacter baumannii, AB5075	30 µM, with: colistin	–	MIC	4 µg/mL (≈ 11.5 µM)
Nc1c2ncn3c2nc[n+]1[C@@H]1O[C@H](COP(=O)(O)OP(=O)([O-])OC[C@@H]2C[C@@H](O)[C@H]3O2)[C@@H](O)[C@H]1O	cADPR receptor	–	permeabilised Jurkat T cells	concentration not given	–	activity	inactive
O=C(N1CCC(C(c2ccc3c(c2)OCO3)c2ccc3c(c2)OCO3)CC1)n1cncn1 [carbon-11 labelled]	MAGL	–	rat, brain	concentration not given	–	blockade	~50%
Cc1cc(C)c(S(=O)(=O)N(C)CC(=O)N(Cc2ccc(C3CCCCC3)cc2)c2ccc(C(=O)O)c(O)c2)c(C)c1	STAT5	refers to: MYC, CCND1 mRNA	–	concentration not given	–	concentration suppressing target genes	~40 µM
C=CCC(=N)NCCC[C@H](N)C(=O)O	bovine eNOS	–	–	100 µM	–	inhibition	45%
Cc1nc(Nc2ncc(C(=O)Nc3c(C)cccc3Cl)s2)cc(N2CCN(C(=O)CCCCCCC(=O)N[C@H](C(=O)N3C[C@H](O)C[C@H]3C(=O)NCc3ccc(-c4scnc4C)cc3)C(C)(C)C)CC2)n1	Bcr-Abl T315I	–	–	concentration not given	–	activity	inactive
C[C@H](NC(=O)[C@@H]1CCCN1C(=O)[C@@H]1CCCN1C(=O)[C@H](C)NC(=O)[C@@H](NC(=O)[C@H](CO)NC(=O)CNC(=O)[C@@H]1CCCN1C(=O)[C@H](C)NC(=O)[C@@H]1CCCN1C(=O)[C@@H](N)CCCNC(=N)N)[C@@H](C)O)C(=O)N[C@@H](Cc1c[nH]cn1)C(=O)NCC(=O)O	16 A monoclonal antibody	SPR	–	–	–	kon	7210 M⁻¹ s⁻¹
CN(C)CCCOc1cc(F)c(-c2c(Cl)nc3ncnn3c2NCC2(C)CC2)c(F)c1	HEK293	–	–	10 µM, 4 h, unit not given	relative to: vehicle (DMSO)	acetylated α-tubulin level	0.49 ± 0.03
CCCCCCCCCCCC(=O)N[C@H](CO)C[C@@H](O)c1ccccc1	START domain	binding	–	–	–	EC50	4100 nM
COc1cc(F)c(C(C)C)cc1C1=C(CN2C(=O)O[C@H](c3cc(C(F)(F)F)cc(C(F)(F)F)c3)[C@@H]2C)CC(C)(C)CC1	CETP	–	cynomolgus monkey	0.1 to 30 mg/kg, single dose	–	duration of CETP inhibition	72 h
CN1C(=O)[C@@H](Cc2ccc(O)cc2)NC(=O)CNC(=O)[C@H](Cc2ccc3ccccc3c2)NC(=O)[C@H](CCCNC(=N)N)NC(=O)[C@H]1CCCNC(=O)c1ccc(CNC(=O)CN2CCN(CC(=O)O)CCN(CC(=O)O)CCN(CC(=O)O)CC2)cc1 [gallium-68 labelled]	–	PET dosimetry	human patients, pancreas	–	–	absorbed dose coefficient	0.0128 mGy/MBq
Cc1ccc(-c2nc3ccc(NC(=O)CCl)cc3[nH]2)cc1	PDGFR-α and PDGFR-β	inhibitor	–	concentration not given	–	inhibition	42.7 to 52.6%
Nc1c2ncn3c2nc[n+]1[C@@H]1O[C@H](COP(=O)(O)OP(=O)([O-])OC[C@H]2O[C@@H]3[C@H](O)[C@@H]2OP(=O)(O)O)[C@@H](O)[C@H]1O	cADPR receptor	–	permeabilised Jurkat T cells	concentration not given	–	activity	inactive
O=C(Nc1ccccc1-c1ccc(Cl)c(Cl)c1)c1nccnc1C(F)(F)F	Puccinia triticina	–	wheat	–	–	EC80	0.5 to 2 mg a.i./L
O=C(NCc1ccc(Br)cc1)N1CCN(Cc2cc(F)cc(F)c2)CC1	bacterial ClpP	activity class	–	concentration not given	–	activity	inactive
Nc1c(SC[C@H](O)[C@H](O)[C@H](O)CO)[nH]c(=O)[nH]c1=O	Bacillus subtilis lumazine synthase	–	recombinant β60 capsid	pH 7.0, Tris·HCl buffer, with: 2 constant, 1 varied	–	Ks	16 ± 2 µM
CN(C)CCCOc1cc(F)c(-c2c(Cl)nc3ncnn3c2NCC2(C)N=N2)c(F)c1	HEK293	–	–	1 µM, 4 h, unit not given	relative to: vehicle (DMSO)	total α-tubulin level	0.36 ± 0.04

A few entries again:
Compound	tested on	assay	test system	setting	how to read	endpoint	value
C[C@@H]1O[C@@H](Oc2c(-c3ccc(O)c(O)c3)oc3cc(O)cc(O)c3c2=O)[C@H](O)[C@H](O)[C@H]1O	Hedgehog/GLI1 pathway	inhibitor	–	concentration not given	–	activity	inactive
CS(=O)(=O)c1ccc(-c2nc3ccccn3c2CN2CCOCC2)cc1	cyclooxygenase-2	–	–	–	relative to: COX-1 IC50 over COX-2 IC50	selectivity ratio	217
CC[C@H](C)[C@H](NC(=O)[C@H](CO)NC(=O)[C@H](CC(C)C)NC(=O)[C@@H]1CCCN1C(=O)[C@@H]1CCCN1C(=O)[C@H](CC(=O)O)NC(=O)[C@@H](N)CC(=O)O)C(=O)N[C@@H](CC(=O)O)C(=O)N[C@@H](CC(C)C)C(=O)N[C@H](C(=O)N[C@@H](Cc1ccccc1)C(=O)N[C@@H](Cc1c[nH]cn1)C(=O)N[C@@H](CC(C)C)C(=O)N[C@@H](CC(C)C)C(=O)N[C@@H](CCCNC(=N)N)C(=O)N[C@H](C(=O)N[C@@H](CC(C)C)C(=O)N[C@@H](CC(C)C)C(=O)N[C@@H](CCC(=O)O)C(=O)N[C@@H](CC(C)C)C(=O)N[C@@H](C)C(=O)N[C@@H](CCCNC(=N)N)C(=O)N[C@H](C(=O)N[C@@H](CCC(N)=O)C(=O)N[C@@H](CO)C(=O)N[C@@H](CCC(N)=O)C(=O)N[C@@H](CCCNC(=N)N)C(=O)N[C@@H](CCC(=O)O)C(=O)N[C@@H](CCCNC(=N)N)C(=O)N[C@@H](C)C(=O)N[C@@H](CCC(=O)O)C(=O)N[C@@H](CCC(N)=O)C(=O)N[C@@H](CC(N)=O)C(=O)N[C@@H](CCCNC(=N)N)C(=O)N[C@H](C(=O)N[C@H](C(=O)N[C@@H](Cc1ccccc1)C(=O)N[C@@H](CC(=O)O)C(=O)N[C@@H](CO)C(=O)N[C@H](C(N)=O)C(C)C)[C@@H](C)CC)[C@@H](C)CC)[C@@H](C)O)[C@@H](C)O)[C@@H](C)O	CRH receptor 1	–	CRH-R1-transfected cells	–	–	EC50	1 to 3 nM
